Published values from different studies.
Parts stem from different laboratories: compare values within a part only.

Block 1
Target: Sal-like protein 4, full length isoform A (SALL4, Homo sapiens, UniProt Q9UJQ4, residues 1-1053)
Sequence of UniProt Q9UJQ4 (whole entry, looked up): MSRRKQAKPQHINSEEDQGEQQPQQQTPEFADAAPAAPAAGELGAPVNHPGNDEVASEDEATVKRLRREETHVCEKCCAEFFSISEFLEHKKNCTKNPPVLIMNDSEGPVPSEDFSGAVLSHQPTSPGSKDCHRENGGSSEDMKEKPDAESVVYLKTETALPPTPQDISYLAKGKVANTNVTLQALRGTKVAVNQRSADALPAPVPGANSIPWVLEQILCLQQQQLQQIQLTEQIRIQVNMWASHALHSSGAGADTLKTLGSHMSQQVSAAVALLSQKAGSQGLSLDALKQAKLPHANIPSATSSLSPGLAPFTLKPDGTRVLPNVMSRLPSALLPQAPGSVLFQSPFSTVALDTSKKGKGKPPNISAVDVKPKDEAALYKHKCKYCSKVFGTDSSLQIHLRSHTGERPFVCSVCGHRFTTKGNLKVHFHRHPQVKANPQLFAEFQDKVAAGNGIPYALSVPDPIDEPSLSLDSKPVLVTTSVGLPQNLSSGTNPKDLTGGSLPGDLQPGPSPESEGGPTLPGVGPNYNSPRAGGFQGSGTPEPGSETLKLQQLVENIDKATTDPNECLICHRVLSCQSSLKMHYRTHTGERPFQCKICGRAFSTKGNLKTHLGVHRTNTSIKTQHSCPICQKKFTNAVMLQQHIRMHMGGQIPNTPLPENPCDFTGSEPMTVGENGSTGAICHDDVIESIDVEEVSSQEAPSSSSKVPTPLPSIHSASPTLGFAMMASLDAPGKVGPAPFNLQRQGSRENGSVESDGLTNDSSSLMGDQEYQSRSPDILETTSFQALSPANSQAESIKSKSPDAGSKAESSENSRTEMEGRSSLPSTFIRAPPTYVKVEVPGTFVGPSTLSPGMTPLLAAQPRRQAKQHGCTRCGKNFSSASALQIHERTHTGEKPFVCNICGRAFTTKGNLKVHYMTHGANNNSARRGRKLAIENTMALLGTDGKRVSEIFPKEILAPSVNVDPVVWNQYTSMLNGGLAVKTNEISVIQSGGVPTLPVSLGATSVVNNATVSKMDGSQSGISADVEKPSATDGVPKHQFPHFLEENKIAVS
Technique: universal PBM
Form: double-stranded DNA, one strand shown
Sample: in vitro
Tested at: 600 nM
Notes: 8-mer, flanks averaged, mean of replicates
Reading: higher = stronger binding
Measurement: E-score
CCATAGGG: -0.0995
GCTACCCC: -0.267
CAGCCCGA: -0.348
CGGAGTTC: -0.164
AAACATAC: 0.169
ACCTCACG: -0.179
CAACTGTG: -0.0988
ACAGGGTG: -0.198
ACATGTGG: 0.0452

Block 2
Target: Hepatocyte nuclear factor 3-beta, forkhead domain (FOXA2, Homo sapiens, UniProt Q9Y261, residues 142-269)
Technique: protein-binding microarray
Form: double-stranded DNA, one strand shown
Sample: in vitro
Tested at: not given
Notes: k-mer, scored over probes, only values ≥0.25
Reading: higher = stronger binding
Measurement: E-score
Construct (chain): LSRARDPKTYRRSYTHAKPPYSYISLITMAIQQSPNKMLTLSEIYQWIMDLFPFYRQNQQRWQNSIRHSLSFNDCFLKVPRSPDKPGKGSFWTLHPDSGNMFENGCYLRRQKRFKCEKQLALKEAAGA
GTACACAA: 0.373
CTATACAC: 0.311
ATACCTAC: 0.286
GACAGATA: 0.287
ATAAACAT: 0.312
AAAGTTAG: 0.25

Block 3
Target: Ras GTPase-activating protein-binding protein 1, RRM domain (G3BP1, Homo sapiens, UniProt Q13283)
Sequence of UniProt Q13283 (whole entry, looked up): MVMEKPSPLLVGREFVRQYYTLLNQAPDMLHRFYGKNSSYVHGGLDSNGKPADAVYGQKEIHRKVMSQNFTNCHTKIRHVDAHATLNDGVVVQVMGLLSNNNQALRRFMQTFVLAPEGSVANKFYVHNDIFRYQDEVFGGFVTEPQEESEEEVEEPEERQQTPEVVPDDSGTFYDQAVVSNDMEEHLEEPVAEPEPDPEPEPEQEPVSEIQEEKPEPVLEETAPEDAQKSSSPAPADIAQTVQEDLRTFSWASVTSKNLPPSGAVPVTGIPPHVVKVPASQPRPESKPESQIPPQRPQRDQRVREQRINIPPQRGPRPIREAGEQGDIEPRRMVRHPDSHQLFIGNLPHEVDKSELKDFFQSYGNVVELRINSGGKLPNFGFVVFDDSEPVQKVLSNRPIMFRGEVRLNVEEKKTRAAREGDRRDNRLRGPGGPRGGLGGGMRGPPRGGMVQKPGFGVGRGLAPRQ
Technique: RNA Bind-n-Seq
Form: RNA
Sample: in vitro
Tested at: 1 µM
Notes: whole 134-nt RNA, ends assumed
With: 150 mM KCl
Reference: input library
Reading: higher = stronger binding
Measurement: log2 enrichment
GGGAGUUCUACAGUCCGACGAUCAGUCCUGUGCUACACAUCGUAUGUACCGAAUCGGGAAAAGGGGAAAAGGGAAAAGGGAAAGUAUUAUGUUACGCCGUUCGGAUCUGCACUUGGAAUUCUCGGGUGUCAAGG: 0.528
GGGAGUUCUACAGUCCGACGAUCCAAGUCCUGUGCUACACAUCGUAUGUACCGAAUCGGGCCCCGGCCCCGGGCCCCGGAAAGUAUUAUGUUACGCCGUUCGGAUCUGCACUUUGGAAUUCUCGGGUGUCAAGG: -0.923
GGGAGUUCUACAGUCCGACGAUCUGUGCUACACAUCGUAUGUACCGAAUCGGGGUUUUUGGGGUUUUUUUGGGGAAAAAAAGGGGAAAGUAUUAUGUUACGCCGUUCGGAUCUUGGAAUUCUCGGGUGUCAAGG: 1.31
GGGAGUUCUACAGUCCGACGAUCUCAAGUCCUGUGCUACACAUCGUAUGUACCGAAUCGGCCCGGGGCCCGGGCCCGGAAAGUAUUAUGUUACGCCGUUCGGAUCUGCACUUCUGGAAUUCUCGGGUGUCAAGG: -0.565

Block 4
Molecule: PhoQ, residues 284 288 289 292 302 303 ASTSDA
Technique: Sort-seq
Measured: YFP reporter
Sample: E. coli
Notes: PhoQ-PhoP variant library
With: 10 µM Mg2+
Reference: high Mg2+ state
Reading: higher = stronger signaling
Measurement: fold induction
PhoP, residues 12 14 15 18 19 ICWRQ (Escherichia coli, UniProt P23836): 9.62
PhoP, residues 12 14 15 18 19 VHTVL (Escherichia coli, UniProt P23836): 11.9
PhoP, residues 12 14 15 18 19 TQCLL (Escherichia coli, UniProt P23836): 2.9

Some of these lines once more (block 2):
ATACCTAC: 0.286
GACAGATA: 0.287
